Measured values collected from several papers.
Numbered parts are unrelated; each lists some results of a single study. Positions count from the first letter of the parent shown.

Study 1
Target: RNA binding protein fox-1 homolog 2, RRM domain, GST-SBP tag (RBFOX2, Homo sapiens, UniProt O43251-10, residues 100-194)
Technique: RNA Bind-n-Seq
Molecule type: RNA
Matrix: in vitro
Concentration: 365 nM
Notes: natural RNA segment, single round, ends assumed
Reference: no-protein control
Direction: higher = stronger binding
Shared flanks, not repeated: GGGAGUUCUACAGUCCGACGAUC … UGGAAUUCUCGGGUGCCAA
Target sequence (chain): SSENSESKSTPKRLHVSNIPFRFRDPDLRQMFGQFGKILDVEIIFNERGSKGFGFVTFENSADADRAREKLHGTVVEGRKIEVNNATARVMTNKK
Strand	RBNS enrichment (R)
AAUGCUGUGUUUGUUGUAAAGGUUUCCAGGACUGAGACCUUAUUCCCUGGGCUUCGUGAAAUGGCACAGUCAUUGGUAAUCUUCAAAAAGCCAGAAGCCCAGGACCUCCU	0.641
AUUUUAAAUACUCUACUUACAGUUGGCCCUCUGUGGUUAGUUCCACAUCUGUGGAUUCAACCAACCAAGGACGGAAAAUGCUUAAAAAAUAAUACAACAACAACAAAAAA	0.599
AGGGCUCUGUACAGUUUUGCCAUUUCACUGUUCUGCUUUAAGCUUAGCUUAUUAGAACUCUUGGUGGAGGGUGCGUACACACAUUCCAGAAAAGGCUUCACUCGCUGGGA	0.273
GUAUCUCUUACAUCAGUAGCAUUUUUCUAAAACCUUAGUCAUCAGAUAUGCUUACUAAAUCUUCAGCAUAGAAGGAAGUGUGUUUGCCUAAAACAAUCUAAAACAAUUCC	0.332
GACCACCCUAUGUCUAUUAAGCCUGAGGGCAGGGGAUCCUGAGCACACUUUGGGCAGAAAUAAGUCACGAUCAUGAAGGAUGGACUGCCUGUCUCACCUGUCCCACAGAA	0.527
UUGUUAAAUAAUGAUAUGUAACUUUUUAACUUUUUAAAUAAAUAACAAGAUUUUUAAUGUGUGUCUCCCUCAGGGUUGUUUAAAGUUUUUUUUCUCCCUCAAGUAUAAAU	0.887
CUACAAUUUUCGACUUAACUUCAAAACACAGUAUUGUGUUAUCUAUCACAUAACAGGACCAUGUUUUUAACCUACCAUCAAGAGCCUGUAUUUUGAGUUAUUCCAACAGA	0.548
GCAAAUGUGUGUAUUUUAAGUGAGUUCCUGCGAGUCAUACACUGCGAUGAUGCUCCGCCUUUACCCGUUCAGUUGGGAGCUUAUUGUGAGAUUGGAUCAUUUCCUUUUGA	0.525
GGAGCCCUUGAGAAGUUUAUCUAUGACUAUGAAACUGGCAACGUCACCCCAGAAUUACGGUCAGCCUUAUUCCCCUUCACCUCCCAGUGAACGCUAAGAAGUUUCAGACA	0.417
UAGAUAGCUUUGGUAAAUAUCUUUAAUAGAGGUGACUAUUGAACUGUUGAAUCUUGCAUUUGCACAGUACAAGGUGUAACUAGCAUCUUUAGUAUUUUUAUUGUUUUGCU	1.09
UCUGAUAGGCACAGUCCAGCCCAGUCUAGCACCACCUUUUAUGGUAGUUGAUCACUCUGAGGAGGUGGGUAGCAAGAUGAAUUAGGAGGUCAAGGUCACUGAGAGGAAUU	0.324
GUUACACUGACAACCCACAUCUUGGCUUGUGAUGGAUCAAAUCUUUUAUGAAGCCUUCAGGGGGACUCAGUAUUGCUGGCCUUUGUUGUAGCCUGUGGUUCCUUCGGAGU	0.242

Study 2
Target: Sal-like protein 4, full length isoform B (SALL4, Homo sapiens, UniProt Q9UJQ4-2, residues 1-616)
Technique: universal PBM
Molecule type: double-stranded DNA, one strand shown
Matrix: in vitro
Concentration: not given
Notes: 8-mer, flanks averaged, mean of replicates
Direction: higher = stronger binding
Strand	E-score
CCAAGCTA	-0.0751
ATAACTGA	0.2
AATGGCAC	-0.0313
TACTCCAA	-0.00235
ACCGAGGG	-0.362
ACAAGTGT	-0.0418
AGAACCAA	-0.164
GAGTGAGA	-0.0833
CTTAGTAC	0.0725
ATGCAGCA	-0.0647
CGGCGATC	-0.27
AACTTTGC	-0.14
GGACACAA	0.0807
CACTCCGG	-0.166
CACTAAAC	0.112
GTGAAATA	0.199
CGGTGTTA	-0.0265
CACGACAA	0.0201
AGCCCCAT	-0.137
GGTAAATA	0.234
AAGTAGTA	0.204
CGAGTGGA	0.018
ACGGCGGA	-0.218
GCCGAGGA	-0.101
CTTAACGC	-0.169

Study 3
Target: Histone acetyltransferase KAT6A, both winged helices, GST fusion (KAT6A, Homo sapiens, UniProt Q92794, residues 1-181)
Technique: protein binding microarray
Molecule type: double-stranded DNA, one strand shown
Matrix: in vitro
Concentration: not given
Notes: 8-mer, flanks averaged, mean of 2 arrays, mostly near background
Reference: not given
Direction: higher = stronger binding
Target sequence (chain): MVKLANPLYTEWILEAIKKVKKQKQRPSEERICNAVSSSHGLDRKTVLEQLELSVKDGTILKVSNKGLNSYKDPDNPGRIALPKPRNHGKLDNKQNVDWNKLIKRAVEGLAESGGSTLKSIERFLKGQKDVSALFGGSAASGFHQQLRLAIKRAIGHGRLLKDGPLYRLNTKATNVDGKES
Strand	E-score
AGAGTGTG	-0.187
CCGTATGC	0.217
ACATCGGG	0.0349
ACTGCCAT	-0.184
AAAATGAT	-0.0264
CCCCTGTA	-0.0549
AAGTGGTC	-0.141
AATTCGGG	0.00802
ACTCAAGA	-0.0475
CATTAGGA	-0.117
AATCGCTC	0.0285
AACGCCGA	0.294
GCAGCTGC	0.144
CGAACCAA	-0.022
GAGCGACC	0.0251
TCCCCACA	-0.198
AAAAGTGT	-0.0296
CCAGCAAG	-0.204
ACCCCGGA	-0.00413

Study 4
Target: Prothrombin, mature alpha-thrombin (F2, Homo sapiens, UniProt P00734)
Technique: aptamer microarray, sandwich
Molecule type: DNA with 2'F-ANA
Matrix: in vitro
Concentration: 200 nM
Notes: whole 15-mer aptamer, many near background
Together with: Cy3 exosite-II aptamer, 400 nM
Direction: higher = stronger binding
Strand: GGTTGGTGTGGTTGG
Modification	mean fluorescence intensity
2'F-ANA at 1 3 10 12	116 a.u.
2'F-ANA at 1 3 6 10 11 12 14	91.4 a.u.
2'F-ANA at 3 4 5 6 7 8 15	96.4 a.u.
2'F-ANA at 2 4 5 10 12	49.8 a.u.
2'F-ANA at 1 2 4 5 8 10 14	48.9 a.u.
2'F-ANA at 1 2 5 6 8 10 11 12 15	53.4 a.u.
2'F-ANA at 3 4 13 14 15	306 a.u.
2'F-ANA at 2 3 4 8 10 11 12 15	266 a.u.
2'F-ANA at 1 3 4 7 8 9 11 14 15	70.8 a.u.
2'F-ANA at 2 3 4 5 7 14	48.8 a.u.
2'F-ANA at 2 3 7 8 15	974 a.u.
2'F-ANA at 1 2 13 14	49.8 a.u.
2'F-ANA at 4 5 8 15	73.1 a.u.
2'F-ANA at 3 7 8 9 12 14	793 a.u.
2'F-ANA at 1 2 3 4 5 6 11 14	84.8 a.u.
2'F-ANA at 3 5 7 9 10 11 12 14 15	57 a.u.
2'F-ANA at 1 2 4 7 8 11 12 14 15	75.9 a.u.
2'F-ANA at 3 4 5 6 9 12 13 15	99.8 a.u.
2'F-ANA at 7 8 9 13 15	507 a.u.
2'F-ANA at 4 5 6 9 11 12 14 15	46.8 a.u.
2'F-ANA at 2 3 6 7 11 15	611 a.u.

Study 5
Target: CCNF, cyclin fold, Cln2 fusion (human)
Technique: yeast growth competition, sequencing
Matrix: yeast
Notes: strong parent motif
Reference: not given
Direction: higher = stronger binding
Starting sequence: RBL2 docking peptide (human); STTRRRLFVENDS; partner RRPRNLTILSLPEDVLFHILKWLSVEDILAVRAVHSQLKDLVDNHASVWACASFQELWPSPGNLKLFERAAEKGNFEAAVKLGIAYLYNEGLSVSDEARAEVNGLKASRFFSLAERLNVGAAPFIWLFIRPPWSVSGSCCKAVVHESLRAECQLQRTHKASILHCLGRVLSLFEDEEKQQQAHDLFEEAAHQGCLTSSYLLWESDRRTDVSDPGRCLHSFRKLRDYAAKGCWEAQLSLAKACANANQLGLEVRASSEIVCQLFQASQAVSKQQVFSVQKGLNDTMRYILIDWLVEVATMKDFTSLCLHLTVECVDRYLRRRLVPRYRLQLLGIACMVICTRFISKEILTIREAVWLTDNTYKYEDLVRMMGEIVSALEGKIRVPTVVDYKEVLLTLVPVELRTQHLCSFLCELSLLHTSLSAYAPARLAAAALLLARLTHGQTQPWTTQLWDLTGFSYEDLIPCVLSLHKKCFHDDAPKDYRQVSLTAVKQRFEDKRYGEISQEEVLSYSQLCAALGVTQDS
Variant	normalised enrichment score
E10W	7.45
T3P	7.41
N11E	8.65
R6V	7.13
F8E	2.22
S13T	8.31
N11L	9.6
V9W	10.1
S1L	9.32
S13F	8.76
V9D	7.52
F8V	4.87
R6S	4.06
T2F	8.07
R6T	4.17
D12H	7.79
S13M	8.05
R6L	7.41
R6H	1.87
T2P	6.84
S1C	9.98

Study 6
Target: Protein max, full length (MAX, Homo sapiens, UniProt P61244-2, residues 1-151)
Technique: protein-binding microarray
Molecule type: double-stranded DNA, one strand shown
Matrix: in vitro
Concentration: not given
Notes: k-mer, scored over probes, only values ≥0.25
Direction: higher = stronger binding
Strand	E-score
ACGTGTGC	0.466
CGTGGCTA	0.402
AGTGTGAT	0.289
AGACACGC	0.404
ACCACCTG	0.424
GGCATGCA	0.39
AAGCACGC	0.421
CACGTCAC	0.258
CACCTGCG	0.369
ACCATGGG	0.321
GGCATGTA	0.26
ATGGCGTG	0.371
CGCCCACA	0.277
ACGCGTTC	0.307
CGGGCACG	0.371
ACCCGCGT	0.262

For quick reference, copied from above (study 3):
Strand	E-score
ACATCGGG	0.0349
ACTGCCAT	-0.184
AAAATGAT	-0.0264
CCCCTGTA	-0.0549
AAGTGGTC	-0.141
AATTCGGG	0.00802
ACTCAAGA	-0.0475
CATTAGGA	-0.117
